# Results pooled from the literature.
# Compare with care: the assays were run in different laboratories.
# Organism: Enterococcus faecalis
Compound,test,test system,setting,quantity,value
CN(Cc1cc(N(C)C)c2c(c1O)C(=O)C1=C(O)[C@]3(O)C(=O)C(C(N)=O)=C(O)[C@@H](N(C)C)[C@@H]3C[C@@H]1C2)CC(C)(C)C,,"JH2-2(pMV158), Tet L efflux",,MIC,0.25 µg/mL
COc1cc(Cc2cnc(N)nc2N)cc(/C=C/C(=O)N2N=Cc3ccccc3C2C=C(C)C)c1OC (centres unmarked),"microbial growth, broth dilution",ATCC29212,pH 7,MIC,0.06 to 0.125 µg/mL
CN(C)c1cc(CN2CCCC2)c(O)c2c1C[C@H]1C[C@H]3[C@H](N(C)C)C(O)=C(C(N)=O)C(=O)[C@@]3(O)C(O)=C1C2=O,,"JH2-2(pMV158), Tet L efflux",,MIC,2 µg/mL
CNC1=C([N+](=O)[O-])C2(C(=O)Nc3ccccc32)C2=C(CCCC2=O)O1 (centres unmarked),,MTCC 439,"250 µg/mL, 24 h",growth inhibition,37.8%
COc1cc(Cc2cnc(N)nc2N)cc(/C=C/C(=O)N2N=Cc3ccccc3C2c2ccccc2)c1OC (centres unmarked),"microbial growth, broth dilution",ATCC29212,pH 5.8,MIC,0.25 µg/mL
CC(C)=CCc1cc([C@@H]2CC(=O)c3c(O)cc(O)c(CC=C(C)C)c3O2)cc(CC=C(C)C)c1O,,ATCC 29212,concentration not given,antibacterial activity,inactive
Cc1ccc2ccc3ccc(C)nc3c2n1.Cc1ccc2ccc3ccc(C)nc3c2n1.O.[Cl-].[Cl-].[Cl-].[Yb+3],bacterial growth,,,inoculation time,48 h
COc1c(CC=C(C)C)c(O)cc2c1-c1oc3c(CC=C(C)C)c(O)ccc3c1CO2,,ATCC 29212,concentration not given,antibacterial activity,inactive
CNCc1cc(N(C)C)c2c(c1O)C(=O)C1=C(O)[C@]3(O)C(=O)C(C(N)=O)=C(O)[C@@H](N(C)C)[C@@H]3C[C@@H]1C2,"microbial growth, broth dilution",,,MIC,4 µg/mL
CNC1=C([N+](=O)[O-])C2(C(=O)Nc3ccc(Cl)cc32)C2=C(O1)C(=O)c1ccccc1C2=O (centres unmarked),,MTCC 439,"250 µg/mL, 24 h",growth inhibition,67.2%
COc1ccc2c3c(oc2c1CC=C(C)C)-c1cc(CC=C(C)C)c(O)cc1OC3,,ATCC 29212,concentration not given,antibacterial activity,inactive

# For quick reference, copied from above:
Compound,test,test system,setting,quantity,value
CNCc1cc(N(C)C)c2c(c1O)C(=O)C1=C(O)[C@]3(O)C(=O)C(C(N)=O)=C(O)[C@@H](N(C)C)[C@@H]3C[C@@H]1C2,"microbial growth, broth dilution",,,MIC,4 µg/mL
CNC1=C([N+](=O)[O-])C2(C(=O)Nc3ccc(Cl)cc32)C2=C(O1)C(=O)c1ccccc1C2=O (centres unmarked),,MTCC 439,"250 µg/mL, 24 h",growth inhibition,67.2%
